Assay results from different studies.
Lines come from different studies, so protocols differ. Numbers after ± are the reported error. Converted amounts (≈) assume the structure as drawn.

| Structure (SMILES) | tested on | test | test system | conditions | how to read | measurement | result |
| --- | --- | --- | --- | --- | --- | --- | --- |
| C=C(NC(=O)C(=C)NC(=O)c1csc(C2=NC3c4csc(n4)C4NC(=O)c5csc(n5)C(C(C)(O)C(C)O)NC(=O)C5CSC(=N5)C(=CC)NC(=O)C(C(C)O)NC(=O)c5csc(n5)C3(CC2)NC(=O)C(=CC)NC(=O)C(=C)NC(=O)C(C)NC(=O)C(C(C)CC)NC2C=Cc3c(C(C)O)cc(nc3C2O)C(=O)OC4C)n1)C(N)=O (centres unmarked) | 20S proteasome |  |  | three proteolytic activities | relative to: compound over thiostrepton A | IC50 ratio range | ≤ 5 fold |
| CC1OCC2OC(OC3C(N)CC(N)C(O)C3OC3OC(CO)C(OC4OC(CN)C(O)C(O)C4N)C3O)C(N)C(O)C2O1 (centres unmarked) | ribosome with mitochondrial A1555G A site | luciferase translation, cell-free translation |  |  |  | IC50 | 98 ± 39.7 µg/mL (≈ 153 µM) |
| C=C[C@H]1CN2CCc3c([nH]c4cccc(OC)c34)[C@@H]2C[C@@H]1/C(=C\OC)C(=O)OC | rabbit anti-mitragynine polyclonal IgG | competitive indirect ELISA |  | concentration not given | relative to: mitragynine | cross-reactivity | 14% |
| CCCCO[C@H]1[C@H](O)[C@@H](N)[C@@H](O[C@H]2[C@H](O[C@@H]3O[C@H](CO)[C@@H](O[C@H]4O[C@@H](CN)[C@@H](O)[C@H](O)[C@H]4N)[C@H]3O)[C@@H](O)[C@H](N)C[C@@H]2N)O[C@@H]1CO | Mycobacterium smegmatis ribosome A1408G | translation, cell-free luciferase synthesis |  |  |  | IC50 | 24.3 ± 5.82 µg/mL (≈ 36.2 µM) |
| O=c1c(O)cccn1CCCN1CCN(CCCn2cccc(O)c2=O)CC1 | Fe(III) | complex formation |  |  |  | log K110 | 6.6 |
| CC[C@H]1CN2CCc3c([nH]c4cccc(OC)c34)[C@@H]2C[C@@H]1/C(=C\OC)C(=O)OC | rabbit anti-mitragynine polyclonal IgG | competitive indirect ELISA |  | concentration not given | relative to: mitragynine | cross-reactivity | 12.7% |
| N=C(N)NCCC[C@@H]1NC(=O)[C@H](CCCCNC(=O)CNC(=O)CNC(=O)CNC(=O)CC[C@H](NC(=O)CCOCCOCCOCCOCCNC(=O)CC[C@H](NC(=O)CN2CCN(CC(=O)O)CCN(CC(=O)O)CCN(CC(=O)O)CC2)C(=O)NCCOCCOCCOCCOCCC(=O)N[C@@H](CCC(=O)NCC(=O)NCC(=O)NCC(=O)NCCCC[C@@H]2NC(=O)[C@@H](Cc3ccccc3)NC(=O)[C@H](CC(=O)O)NC(=O)CNC(=O)[C@H](CCCNC(=N)N)NC2=O)C(=O)NCC(=O)NCC(=O)NCC(=O)NCCCC[C@@H]2NC(=O)[C@@H](Cc3ccccc3)NC(=O)[C@H](CC(=O)O)NC(=O)CNC(=O)[C@H](CCCNC(=N)N)NC2=O)C(=O)NCC(=O)NCC(=O)NCC(=O)NCCCC[C@@H]2NC(=O)[C@@H](Cc3ccccc3)NC(=O)[C@H](CC(=O)O)NC(=O)CNC(=O)[C@H](CCCNC(=N)N)NC2=O)NC(=O)[C@@H](Cc2ccccc2)NC(=O)[C@H](CC(=O)O)NC(=O)CNC1=O [indium-111 labelled] |  |  | female athymic nude mice, lungs | intravenous, 3 µCi, 72 h, U-87 MG glioma xenograft |  | tissue uptake | 0.3 ± 0.03 %ID/g |
| c1ccc(CCNC2CCCc3c2[nH]c2ccc(C4CCCCC4)cc32)cc1 (centres unmarked) | MurT/GatD complex, Staphylococcus aureus |  |  |  |  | lipid II amidation | no effect |
| COC(=O)C1=CO[C@@H](OC(C)=O)[C@@H]2C(Cn3cc(COCc4ccccc4)nn3)=CC[C@H]12 | SK-N-SH | neuroprotection, MTT |  | 0.6 µM, 24 h, with: 250 µM H2O2 |  | viability | 60.6 ± 0.4% |
| Cc1cn(C2CCC(OC(C(=O)O)P(=O)(O)O)C2)c(=O)[nH]c1=O (racemic) | HIV-1 reverse transcriptase M184I/E138K | enzyme activity, inhibitor |  | with: poly(rA)·dT, [3H]dTTP | relative to: mutant over wild type | fold resistance | 16 fold |
| Cc1c(-c2cccc(C3=NCCN3)c2)oc(-c2cccc(C3=NCCN3)c2)c1C | F21T G-quadruplex DNA | FRET melting competition |  | 1 µM, with: calf thymus DNA, G4:CT 1:100 | relative to: without competitor | remaining ΔTm | 100% |
| COc1ccc(F)cc1S(=O)(=O)Nc1cnc2c(c1)C(=O)NCCO2 | alkaline phosphatase | inhibitor | C57BL/6J mouse | oral, 1 or 10 mg/kg, 1 to 6 h, potassium salt | relative to: control | plasma ALP activity | decreased |
| CCCO[C@H]1[C@H](O)[C@@H](N)[C@@H](O[C@H]2[C@H](O[C@@H]3O[C@H](CO)[C@@H](O[C@H]4O[C@@H](CN)[C@@H](O)[C@H](O)[C@H]4N)[C@H]3O)[C@@H](O)[C@H](N)C[C@@H]2N)O[C@@H]1CO | Mycobacterium smegmatis ribosome A1408G | translation, cell-free luciferase synthesis |  |  |  | IC50 | 11.7 ± 4.94 µg/mL (≈ 17.8 µM) |
| CCCCCCCCOCc1cn(CC2=CC[C@@H]3C(C(=O)OC)=CO[C@@H](OC(C)=O)[C@H]23)nn1 | SK-N-SH | neuroprotection, MTT |  | 0.15 µM, 24 h, with: 250 µM H2O2 |  | viability | 62.5 ± 0.4% |
| CCO[C@H]1[C@H](O)[C@@H](N)[C@@H](O[C@H]2[C@H](O[C@@H]3O[C@H](CO)[C@@H](O[C@H]4O[C@@H](CN)[C@@H](O)[C@H](O)[C@H]4N)[C@H]3O)[C@@H](O)[C@H](N)C[C@@H]2N)O[C@@H]1CO | ribosome with mitochondrial A1555G A site | luciferase translation, cell-free translation |  |  |  | IC50 | 120 ± 45.6 µg/mL (≈ 186 µM) |
| CN1C(=O)C2(Cc3ccc(CC45SSC(CO)(C(=O)N4C)N(C)C5=O)cc3)SSC1(CO)C(=O)N2C (racemic) | HIF-1α | reporter gene, HRE luciferase reporter | MDA-MB-231-HRE-Luc | 200 nM, with: deferoxamine 300 µM, hypoxia |  | inhibition | 85% |
| NC[C@@H]1O[C@H](O[C@H]2[C@@H](O)[C@H](O[C@@H]3[C@@H](O)[C@H](N)C[C@H](N)[C@H]3O[C@H]3O[C@H](CO)[C@@H](OCCCO)[C@H](O)[C@H]3N)O[C@@H]2CO)[C@H](N)[C@@H](O)[C@@H]1O | ribosome with mitochondrial A site | luciferase translation, cell-free translation |  |  |  | IC50 | > 700 µg/mL |
| CC[C@H](C)[C@H](NC(=O)[C@H](Cc1ccccc1)NC(=O)[C@H](CCC(=O)O)NC(=O)[C@H](CCCCNC(=O)COCC(=O)NCCCOCCOCCOCCCNC(=O)CNC(=O)[C@@H]1CCCN1C(=O)CNC(=O)[C@@H]1CCCN1C(=O)CNC(=O)[C@@H]1CCCN1C(=O)[C@H](CCCCNC(=O)CN(CCN(CCN(CC(=O)O)CC(=O)O)CC(=O)O)CC(=O)O)NC(=O)COCC(=O)NCCCOCCOCCOCCCNC(=O)COCC(=O)NCCOc1ccc(Cl)cc1C(=O)NCCc1ccc(S(=O)(=O)NC(=O)NC2CCCCC2)cc1)NC(=O)[C@H](C)NC(=O)[C@H](C)NC(=O)[C@H](CCC(N)=O)NC(=O)CNC(=O)[C@H](CCC(=O)O)NC(=O)[C@H](CC(C)C)NC(=O)[C@H](Cc1ccc(O)cc1)NC(=O)[C@H](CO)NC(=O)[C@H](CO)NC(=O)[C@@H](NC(=O)[C@H](CC(=O)O)NC(=O)[C@H](CO)NC(=O)[C@@H](NC(=O)[C@H](Cc1ccccc1)NC(=O)[C@@H](NC(=O)CNC(=O)[C@H](CCC(=O)O)NC(=O)[C@H](C)NC(=O)[C@@H](N)Cc1c[nH]cn1)[C@@H](C)O)[C@@H](C)O)C(C)C)C(=O)N[C@@H](C)C(=O)N[C@@H](Cc1c[nH]c2ccccc12)C(=O)N[C@@H](CC(C)C)C(=O)N[C@H](C(=O)N[C@@H](CCCNC(=N)N)C(=O)NCC(=O)N[C@@H](CCCNC(=N)N)C(=O)NCC(N)=O)C(C)C | GLP-1R and SUR1 | Eu-ligand saturation binding | βTC3 | 1 h, 37 °C, high-affinity site |  | Kd | 10 nM |
| COCOC[C@H]1O[C@H](O[C@H]2[C@H](O[C@@H]3O[C@H](CO)[C@@H](O[C@H]4O[C@@H](CN)[C@@H](O)[C@H](O)[C@H]4N)[C@H]3O)[C@@H](O)[C@H](N)C[C@@H]2N)[C@H](N)[C@@H](O)[C@@H]1O | Mycobacterium smegmatis ribosome A1408G | translation, cell-free luciferase synthesis |  |  |  | IC50 | 5.47 ± 1.24 µg/mL (≈ 8.29 µM) |
| CCCCCCC(=O)C(=O)C(O)CO (centres unmarked) | MscS, Escherichia coli | channel gating, patch clamp | giant spheroplasts | 1 mM, asymmetric addition |  | maximal shift of p0.5 | 20% |
| CC[C@H](C)[C@@H]1NC(=O)[C@H](Cc2ccc(O)cc2)NC(=O)[C@@H](N)CSSC[C@@H](C(=O)N2CCC[C@H]2C(=O)N2CCC[C@H]2C(=O)NCC(N)=O)NC(=O)[C@H](CC(N)=O)NC(=O)[C@H](CCC(N)=O)NC1=O | oxytocin receptor (Callithrix jacchus) | Ca2+ mobilisation, agonist | CHO cells |  |  | EC50 | 0.44 nM |
| O=C1c2ccccc2N(Cc2ccc(F)cc2)C12CCCC2 | acetylcholinesterase |  |  | 10 µM |  | remaining activity | 75.5 ± 3.71% |
| CCCCCCCCC(=O)NCc1ccc(O)c(OC)c1 | mAb 3-LD3 | antibody binding, indirect competitive ELISA |  | with: coating antigen hapten 4-OVA |  | IC50 | 0.00475 µg/mL (≈ 0.0162 µM) |
| O=C1c2cc(Cl)ccc2NC12CCCC2 | acetylcholinesterase |  |  | 10 µM |  | remaining activity | 100 ± 5.23% |
| CCCCCO[C@H]1[C@H](O)[C@@H](N)[C@@H](O[C@H]2[C@H](O[C@@H]3O[C@H](CO)[C@@H](O[C@H]4O[C@@H](CN)[C@@H](O)[C@H](O)[C@H]4N)[C@H]3O)[C@@H](O)[C@H](N)C[C@@H]2N)O[C@@H]1CO | Mycobacterium smegmatis ribosome A1408G | translation, cell-free luciferase synthesis |  |  |  | IC50 | 21.7 ± 5.04 µg/mL (≈ 31.7 µM) |
| N=C(N)NCCC[C@@H]1NC(=O)[C@H](CCCCNC(=O)CC[C@H](NC(=O)CCOCCOCCOCCOCCNC(=O)CC[C@H](NC(=O)CN2CCN(CC(=O)O)CCN(CC(=O)O)CCN(CC(=O)O)CC2)C(=O)NCCOCCOCCOCCOCCC(=O)N[C@@H](CCC(=O)NCCCC[C@@H]2NC(=O)[C@@H](Cc3ccccc3)NC(=O)[C@H](CC(=O)O)NC(=O)CNC(=O)[C@H](CCCNC(=N)N)NC2=O)C(=O)NCCCC[C@@H]2NC(=O)[C@@H](Cc3ccccc3)NC(=O)[C@H](CC(=O)O)NC(=O)CNC(=O)[C@H](CCCNC(=N)N)NC2=O)C(=O)NCCCC[C@@H]2NC(=O)[C@@H](Cc3ccccc3)NC(=O)[C@H](CC(=O)O)NC(=O)CNC(=O)[C@H](CCCNC(=N)N)NC2=O)NC(=O)[C@@H](Cc2ccccc2)NC(=O)[C@H](CC(=O)O)NC(=O)CNC1=O [indium-111 labelled] |  |  | female athymic nude mice, eyes | intravenous, 3 µCi, 24 h, U-87 MG glioma xenograft |  | tissue uptake | 0.39 ± 0.12 %ID/g |
| NC[C@@H]1O[C@H](O[C@H]2[C@@H](O)[C@H](O[C@@H]3[C@@H](O)[C@H](N)C[C@H](N)[C@H]3O[C@H]3O[C@H](CO)[C@@H](OCC(O)CO)[C@H](O)[C@H]3N)O[C@@H]2CO)[C@H](N)[C@@H](O)[C@@H]1O (some centres unmarked) | ribosome with mitochondrial A site | luciferase translation, cell-free translation |  |  |  | IC50 | 31.8 ± 14.2 µg/mL (≈ 46.2 µM) |
| O=C1c2cc(Br)ccc2NC12CCCC2 | acetylcholinesterase |  |  | 10 µM |  | remaining activity | 60.9 ± 4.42% |
| COc1ccc2c(c1)c1c(C)c3cnccc3c(C)c1n2CCCN1CCN(C)CC1 | R1 A-to-G mutant 41-mer DNA | CD thermal melt |  |  | relative to: no drug | ΔTm | 3 °C |

For quick reference, copied from above:
| Structure (SMILES) | tested on | test | test system | conditions | how to read | measurement | result |
| --- | --- | --- | --- | --- | --- | --- | --- |
| CC[C@H](C)[C@@H]1NC(=O)[C@H](Cc2ccc(O)cc2)NC(=O)[C@@H](N)CSSC[C@@H](C(=O)N2CCC[C@H]2C(=O)N2CCC[C@H]2C(=O)NCC(N)=O)NC(=O)[C@H](CC(N)=O)NC(=O)[C@H](CCC(N)=O)NC1=O | oxytocin receptor (Callithrix jacchus) | Ca2+ mobilisation, agonist | CHO cells |  |  | EC50 | 0.44 nM |
| O=C1c2ccccc2N(Cc2ccc(F)cc2)C12CCCC2 | acetylcholinesterase |  |  | 10 µM |  | remaining activity | 75.5 ± 3.71% |
| CCCCCCCCC(=O)NCc1ccc(O)c(OC)c1 | mAb 3-LD3 | antibody binding, indirect competitive ELISA |  | with: coating antigen hapten 4-OVA |  | IC50 | 0.00475 µg/mL (≈ 0.0162 µM) |
| O=C1c2cc(Cl)ccc2NC12CCCC2 | acetylcholinesterase |  |  | 10 µM |  | remaining activity | 100 ± 5.23% |
